# Published values of several laboratories.
# Parts stem from different laboratories: compare values within a part only.
# Chain of UniProt P41595 (whole entry, looked up): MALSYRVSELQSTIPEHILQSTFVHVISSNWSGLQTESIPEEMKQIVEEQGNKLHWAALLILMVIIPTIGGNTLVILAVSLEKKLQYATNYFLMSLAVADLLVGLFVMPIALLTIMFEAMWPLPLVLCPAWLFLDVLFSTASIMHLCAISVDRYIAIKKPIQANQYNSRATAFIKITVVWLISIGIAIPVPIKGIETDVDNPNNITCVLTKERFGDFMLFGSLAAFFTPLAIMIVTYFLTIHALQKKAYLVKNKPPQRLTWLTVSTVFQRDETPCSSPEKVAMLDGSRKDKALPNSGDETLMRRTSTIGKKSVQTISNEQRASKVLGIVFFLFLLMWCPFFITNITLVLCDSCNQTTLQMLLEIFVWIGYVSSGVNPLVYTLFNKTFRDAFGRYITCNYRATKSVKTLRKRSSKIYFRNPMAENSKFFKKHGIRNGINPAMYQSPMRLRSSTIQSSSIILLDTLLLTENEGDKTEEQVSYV

# Block 1
# Target: RING finger protein unkempt homolog, zinc fingers 1-6, GST-SBP tag (UNK, Homo sapiens, UniProt Q9C0B0, residues 30-357)
# Chain of UniProt Q9C0B0 (30-357, looked up): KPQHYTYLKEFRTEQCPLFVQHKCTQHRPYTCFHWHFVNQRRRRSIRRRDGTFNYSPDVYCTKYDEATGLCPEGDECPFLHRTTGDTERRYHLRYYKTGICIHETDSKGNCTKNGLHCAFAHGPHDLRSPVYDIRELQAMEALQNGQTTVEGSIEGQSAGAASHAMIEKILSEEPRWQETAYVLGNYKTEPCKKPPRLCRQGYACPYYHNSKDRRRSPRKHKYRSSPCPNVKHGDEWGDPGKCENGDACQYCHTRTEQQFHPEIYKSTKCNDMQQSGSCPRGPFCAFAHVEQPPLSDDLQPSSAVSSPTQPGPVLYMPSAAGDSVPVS
# Method: RNA Bind-n-Seq
# Molecule type: RNA
# Medium: in vitro
# Concentration: not given
# Notes: RNA with constant flanks, ends assumed
# Baseline: input RNA pool
# Direction: higher = stronger binding
# Constant ends, left off below: GGGAGUUCUACAGUCCGACGAUC … CAACAGAGGAUUGAGCAUCA
Strand,bound/input enrichment [ratio]
ACCUCAAACCAGAAAUACCUCAGAAUUUUCUACUUAUGUAAGGUUUAUUAUAUAUUUUGUCCGUUGUGUUGUCUUGUAGUAAGUAUAUUUUAAUGUAAGUUGGCUUUUGUGACAAGGAAG,3.7
CUUCAGUUACAUCCCAGGGAAGAUGCUUGCAUCCCCAAUACAAACUAUGGUGUUCUCUUAACCGAGUUUUUUGAAUUAUAUGGACGGCACUUCAAUUACUUAAAGACUGGCAUCCGGAUA,0.308
AUCCCUGAGAAUGCUAUAUUUGGUCCCUGUGUCCUGAGCCAUACUUCCCUAUAUGACAGCACCGCUUUCAUAGCUCUCAAGUCUACUGACAAGAGAACAGUACCGUAUAUCUUUCGGGUA,0.108
GCCCUCAAUUUUUCUGUGUUCUACUAUGAGAUCCAGAAUGCACCAGAGCAAGCCUGCCUCUCCGCCAAACAAGCCUUCGAUGAUGCUAUAGCUGAGCUGGACACAUUAAACGAGGAUUCC,0.227
GCAGCUGCAGUUGCACUUUCCUCCCUGAUUCAUGCUUUGGAUGACUUAGACAUGGUGGCCACCGUUCGAUAUGCUUAUGACAAAAGAGCUAAUCCUCAAGUCGGCGUGGCUUUUCCUCAU,0.287
ACCACUGGUGGCAUUGAUGAUAUGUAUCUCAAGUAUUUUGUGGAAGCUGGUGCCAUGGCUGUCCGGAGAGUUUUAAAACGAGACCUGAAGCAUGUUGCAAAAGCUUCUGGAGCAAGUAUC,0.114
GGUAGUGAACAAUGACCUCAUUUUAUUUUCUAUGUUAGUUAUUUAUUUCAAAAUUUACAUUUCCGUUUAUUUUCGUCUGUAAAGCGUAUGUUUCGCACUGCUCUUUUACUCUGAGGGUUU,36.2
GAAAAUCAAAAGACUAAUAUUAAUACUGUGGCUAAACAGGAACAGCGACCCAUAAAAAAGAACCGUCUUUAUUCAACAGAUUUCAUAGUGUUUAAUGACAACGAUGGUUCAGAUGAUGAA,0.245

# Block 2
# Target: TAR DNA-binding protein 43, full length, His tag (TARDBP, Homo sapiens, UniProt Q13148, residues 1-414)
# Method: RNA Bind-n-Seq
# Molecule type: RNA
# Medium: in vitro
# Concentration: 20 nM
# Notes: 6-mer, flanks averaged, single round
# With: 150 mM LiCl
# Baseline: input library
# Direction: higher = stronger binding
Strand,6-mer enrichment (R)
CGCCAU,0.907
AGAGGG,1.22
ACUAGU,0.881
AGAACC,0.921
CCCAAG,0.937
UUACAU,0.921
UGUAUA,1.09
GAUAUA,0.902

# Block 3
# Organism: Saccharomyces cerevisiae
# Effect on: binding
# Method: yeast competitive growth sequencing
# Molecule type: peptide
# Strain: cyclin B3-Cln2 fusion strain
# Notes: peptide tiling library
# Direction: direction not given
Molecule,enrichment score
ALLRRLQDVANDRGSH,-0.889
PFSENVSAVQKLDFSD,1.13
RSLKLDGLLEEN,-2.94
SFLIEYEFLIPPSLKP,1.32
LKGRRLVFDN,-0.0828
IQKKLRFEDTLEFVGF,-1.47
TRRRLFVENDSP,0.537
PLRKAKRARLCSSSSS,1.57

# Further values, each from its own experiment
SMILES,target,assay,conditions,measurement,result
CNC(=O)c1cc(C(=O)N[C@H]2[C@@H]3COC[C@@H]32)cc2c1O[C@@H](CF)[C@@H]2c1ccccc1,"5-hydroxytryptamine receptor 2B (HTR2B, Homo sapiens, UniProt P41595)","binding, radioligand binding",10 µM,inhibition,-14.1%
